Measurements from different studies.
Each numbered part is a random draw from the data of one study; scales do not carry over between parts.

Series 1 — technique: RNA Bind-n-Seq; form: RNA; matrix: in vitro; concentration: 365 nM; baseline: no-protein control; reading: higher = stronger binding
Target: RNA binding protein fox-1 homolog 2, RRM domain, GST-SBP tag (RBFOX2, Homo sapiens, UniProt O43251-10, residues 100-194)
Setting: natural RNA segment, single round, ends assumed
All sequences stand within: GGGAGUUCUACAGUCCGACGAUC … UGGAAUUCUCGGGUGCCAA
Construct (chain): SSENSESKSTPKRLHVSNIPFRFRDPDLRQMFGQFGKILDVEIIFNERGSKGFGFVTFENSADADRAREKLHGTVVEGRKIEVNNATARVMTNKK
Oligonucleotide	RBNS enrichment (R)
UGGGCUUGGCAGUAGGAUAGACUUGAUGCCUGCGUUUUGGACCUUAGACCUGCCCGCCUUCGUUCCUACAGUUAGAUCAUCUUGAGAGAUACUUAAAAGUAUCUCCUCCU	1.01
CUCCUGCCGCUGCGAGGCUGAACUCUUUGGUCCUGCCUCCCGUUCUCAAUACACUCUGUCUCAAAUCGUCUUGCUUCUUUCUUCUGCGCUGUUGCUGCCACGGGCUGGGG	0.763
UACUCAUUGUUAGGAUCCUACUGCUGAAGGGUGCUAUGUCACUUUCUAGUGCUCUUAUAUGUCUUUAAUUAUAGGACUGGAAUGAAAAGCUUAACCAUACAGUAUUUCUA	0.393
UUUUUUCCUUUCUUUGUGUGUAGUGCAGCAACAGUUUGGUCUGCAUUUGUUAGAAGUUUAACUCCUAACAACCCAAAGACCUAUUUAACAAUUGGUGCAUAAAUGAAAGU	0.422
UGAUGUCCAUCUGUCCCUGUGUCUUCUGUCCUCUUUCAGCUAGUUUAGGCUUAUGCCUAGAGUCACCCCAAAGAACUGAGACUGGCUGCAGCAGCCCAGCUGUGUUUCUC	0.705
GUUCAGAUACUGCUGGUAAAGAAACUGGAAAAACUGAAGGAAGGAAUAAAAUAUGUUGGUGGUAUUAACACCUCCAGUAAGAUAAGUCAUUGGUACGGUUUUUCUAAGGG	0.378
GGAGGGCCUAGGUGGUAUCUCCGGCCCAGAUGUGAAUACCUCCAUAUUCCCUGUUGGUUCCUGUUUCACUGGCUGUUUUAGCUUUGUGUUGAUUGGUGUUUCUGAGCAUU	0.28
GCCAAAGACUGGUGGUGGGUCCACGGAAUCUGCCCUGUGACAUGAAAGGCUUUGAGGGGCUCUGGCUGGUGGCCAGGUUGGCUUUUUGUAUUUCUGGUUGACACACCAUG	0.897
AGAGGAGACUGAGCUAACUUCAGCUUGCUUGCUUGCUUGCUUGCUUGCUUGCUUGCUUGCUUGCCCUUAAAGAACAGAUCAAGCCUACAUACUCCAUACACUAUACUUCA	0.408
AGGGAAACCAAGCUUGGGCCUUGCAGUGGAAAUGGAUCCGAGGGCCCAGGGGACCCUGGUGGAUUUAGGGACUGUCCCCUCCCAUACUCCAAUAGAGGCCUAUCCUGACU	0.906
AGAUGCACCACCCAUGGAGAGGUUUGUCAACACAAAGACAUGGAAGGUUAGAGGUUUGUCAACAAAAAGACAUGGAAGGUUAGGUUUGUCAACACAAAGACAUGGAAGAU	1.28
GCAUUUCUCUGCAGGAUACCAGUUCAGGCCCCACCAUUCCUGCCAAGGCCAUUACAUCCCACAAACCCAAAUACAAAGCAGCUGACUUCCCUGGAUCUUCCCCCCACUCC	1.7

Series 2 — technique: aptamer microarray, sandwich; form: DNA with 2'F-ANA; matrix: in vitro; concentration: 200 nM; with: Cy3 exosite-II aptamer, 400 nM; reading: higher = stronger binding; oligonucleotide: GGTTGGTGTGGTTGG
Target: Prothrombin, mature alpha-thrombin (F2, Homo sapiens, UniProt P00734)
Setting: whole 15-mer aptamer, many near background
Modification	mean fluorescence intensity
2'F-ANA at 2 4 6 7 8 11 13	180 a.u.
2'F-ANA at 2 5 7 10 12 13 14 15	49.2 a.u.
2'F-ANA at 4 8 9 10 12 13 14 15	58.3 a.u.
2'F-ANA at 1 2 3 4 7 10 12 13 14 15	60.2 a.u.
2'F-ANA at 2 4 6 11 12 15	405 a.u.
2'F-ANA at 2 3 8 9 11 15	721 a.u.
2'F-ANA at 2 4 7 8 9 10 11 12 13 15	90.6 a.u.
2'F-ANA at 1 2 4 8 12 15	399 a.u.
2'F-ANA at 1 3 5 6 7 8 9 10 11 13 14 15	51.1 a.u.
2'F-ANA at 1 4 9 12 13 15	164 a.u.
2'F-ANA at 1 3 4 5 6 7 12 13 14	47.4 a.u.
2'F-ANA at 1 6 8 9 12	395 a.u.
2'F-ANA at 1 2 4 5 7 9 10 14	45.7 a.u.
2'F-ANA at 1 2 4 9 10 12 13 15	61.3 a.u.
2'F-ANA at 5 7 10 11 13	46.9 a.u.
2'F-ANA at 2 4 5 6 9 11 12 13 14	48 a.u.
2'F-ANA at 1 4 6 12 13 15	198 a.u.

Series 3 — technique: protein-binding microarray; form: double-stranded DNA, one strand shown; matrix: in vitro; concentration: 2540 nM top; setting: 60-bp whole probe; with: salmon DNA 0.4 mg/ml; baseline: random background probes; reading: higher = stronger binding; all sequences stand within: GCCTAGCAC … GTCTTGATTCGCTTGACGCTGCTG
Target: Interferon regulatory factor 3, full length, phosphomimetic (IRF3, Homo sapiens, UniProt Q14653, residues 1-427, S386D/S396D/S398D/S402D/T404D/S405D)
Residues (chain): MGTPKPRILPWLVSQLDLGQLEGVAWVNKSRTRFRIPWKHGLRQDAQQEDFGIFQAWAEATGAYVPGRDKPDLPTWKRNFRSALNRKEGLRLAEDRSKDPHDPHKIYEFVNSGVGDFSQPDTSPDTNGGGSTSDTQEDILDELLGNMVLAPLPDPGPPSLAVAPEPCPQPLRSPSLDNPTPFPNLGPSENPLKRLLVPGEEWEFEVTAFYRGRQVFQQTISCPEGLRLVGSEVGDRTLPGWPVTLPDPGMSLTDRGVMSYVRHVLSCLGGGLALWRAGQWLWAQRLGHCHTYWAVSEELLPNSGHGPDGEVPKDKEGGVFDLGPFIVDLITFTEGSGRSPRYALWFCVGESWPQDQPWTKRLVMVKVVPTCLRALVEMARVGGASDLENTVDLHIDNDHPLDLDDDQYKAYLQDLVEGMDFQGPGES
Oligonucleotide	fitted relative affinity [z-score]
TTAGTACTGGACACTGGGTTAGTGCTA	-0.521
TTAGATTTCAATTCCGATTAGTGCTAG	2.27
TTAGGAATCGGGTATCGGTTAGTGCTA	0.749
TTAGGGCTCCTTCTCCTTTAGTGCTAG	2.69
TTAGGTATCAGGTATCGGTTAGTGCTA	2.52
GTGGGACCCATGAACACTCAGTGCTAG	-0.744
TTAGATTTCGGGACTGGTTTAGTGCTA	1.3
GACAAACTGAGTCTCGAGACGTGCTAG	-0.332
TTAGGTCTCGTACTGCTTTAGTGCTAG	-0.0976
GACGATATCGGGTTTCTAGACGTGCTA	0.536
GACGGAATCGGGACTGGGGACGTGCTA	-0.0627
TTAGAACTGACTTTCGATTAGTGCTAG	0.844
TTAGGACTGAGACTGGATTAGTGCTAG	-0.615
TTTTGTTGTTTTTTGGTTTCGTGCTAG	2.04
GACGTTTTCGACTTTCGGGACGTGCTA	2.68
TCAGATTCCAGTTTCGATTAGTGCTAG	5.02
TCATGTGTGTGTTTGTGACTGTGCTAG	-0.606
TCAAATCTTGAGTTAGAACTGTGCTAG	-0.143
GACGGACTGGGGAATGGGGACGTGCTA	-0.713
TTAGATATCAAACTGGATTAGTGCTAG	-0.0335

Series 4 — technique: protein binding microarray; form: double-stranded DNA, one strand shown; matrix: in vitro; concentration: not given; baseline: not given; reading: higher = stronger binding
Target: Histone acetyltransferase KAT6A, winged helix 1, GST fusion (KAT6A, Homo sapiens, UniProt Q92794, residues 1-85)
Setting: 8-mer, flanks averaged, mean of 2 arrays, mostly near background
Construct (chain): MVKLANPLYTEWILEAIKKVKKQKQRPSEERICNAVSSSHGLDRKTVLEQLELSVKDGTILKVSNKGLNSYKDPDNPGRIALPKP
Oligonucleotide	E-score
GGGTGTGA	-0.0544
AAGATGTA	-0.178
CATGCTCG	-0.103
GAGTGTCA	-0.0764
AGTGTGCC	-0.0877
GCGGTAAA	0.337
ATGGCGGA	0.124
GGACATAC	0.096
GCGATTGA	0.0515
CATCGGGA	0.0905
ACGATGGG	-0.157
CGCCTCCG	0.278
AATCTAGG	-0.121
GAGCATTA	-0.0456
CCGCGTAA	0.373
CGCATATC	0.204
AGTGTTAG	-0.162
CCGTGCAC	0.246
AACACATT	-0.0842
GATCTGGC	-0.0785
CCTGTTCC	-0.147

A few entries again (series 2):
Modification	mean fluorescence intensity
2'F-ANA at 1 3 4 5 6 7 12 13 14	47.4 a.u.
2'F-ANA at 1 6 8 9 12	395 a.u.
2'F-ANA at 1 2 4 5 7 9 10 14	45.7 a.u.
2'F-ANA at 1 2 4 9 10 12 13 15	61.3 a.u.
2'F-ANA at 5 7 10 11 13	46.9 a.u.
2'F-ANA at 2 4 5 6 9 11 12 13 14	48 a.u.
